Published values gathered from unrelated publications.
Every numbered part comes from another study and shows a few of its results, in no order.

Set 1
Target: RNA binding protein fox-1 homolog 2, RRM domain, GST-SBP tag (RBFOX2, Homo sapiens, UniProt O43251-10, residues 100-194)
Method: RNA Bind-n-Seq
Form: RNA
Sample: in vitro
Concentration: 365 nM
Notes: natural RNA segment, single round, ends assumed
Baseline: no-protein control
Direction: higher = stronger binding
Quantity: RBNS enrichment (R)
All sequences stand within: GGGAGUUCUACAGUCCGACGAUC … UGGAAUUCUCGGGUGCCAA
Target sequence (chain): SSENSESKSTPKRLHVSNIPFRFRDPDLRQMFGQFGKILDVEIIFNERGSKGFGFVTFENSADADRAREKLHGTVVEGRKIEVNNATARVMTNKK
AAAGCACAGUUGUAACUACCUGAAAUAUGAAGAUCCAGUUUCAUACAAACAUUUGUAUGACGUGAAUAGUUGAUGGCAUUUUUUUGUCAUGAAAAAAAUAAUGUAAAUCA: 0.948
CAGGCCAGUGUUGAAACUUUCACACCCUGAGUGACUACGGGAGAACUGCCAGCUUCCGCUUCUCUGUGCUCUGUGUCUGCGGUUUACAUAUAGAUCGUCCCCCUGGAAAC: 0.386
AUUUCUAGCAUGCUUUUAAUUUCAGAUUUUCAGCUGACAUUAGCUAUAGUAUACAGUAGGUUAAGACUCAUGUCUAUGACUUUCACUCUAAGACUGGCAAAAGGACAGCA: 2.17
GAAACAGGUUUCUCUCAGUGGCACAUUUUGCUUUUUCUUAGCCCUCAAAUACAUUGCCUCGGCAUGAACAUUAUUGUUAAUAUAAAUUGCACAUGGUCAUCGAGUGAAUU: 0.307
CCAUGUGCGAGGGAGGUGGUCAGCUGUCAAUAUGCCUUAGUAUGUUUAUAUGAGUUUGUUUUGUUCUAAAAUACCCAAACAGUUCUGGUCAAGCGGGGCUAUGCCCGUCU: 2.15
UAAUUGUUUGAAAUUUUUCUAGAGCCAAAGAAGCUCUUUAAAGAAGUUGUUUCUUCCAAAGAACAAAGCCAGGUUAAUGACAUUCAAUUCUAAAUGAUACAUUGGAAUUG: 0.25
CUCGAUUGCUUCAGCCUCACCGGGGCAUUGAAUCAUCAUUUGUUGAAUGGCAACAGGUUUGCUGGGGCAGAGGCACUGCCUAAGUGGGAGCAUGCACGUGAAAAUAGAAA: 7.87
CUCCGUGCAGGAGGCCCUUCAUUAUUGCUGCAGAAGACAGAAGCCUGGCUGAGUCACUCUCCACGUCUAUCCUGAAAUCACUCAAUGCUUCUGCCGGGUUUUUGUACAUG: 0.362
CCCCAACUCUGCCCUUCUCCCAUCCAAGAGAAACCAGCAAAAUGAUAAAGAAGCUAACCUGCCAUAGUCAGACUUCAGACUUUCAAGAUUAUUCUAAAUCACCAGAAAAU: 0.344
AGAACUCUGAUUGUGGGUAAUCCAUAAGCUUCCUCUACAGGCUCCCCGCUUGGUUCUCACUUCUGCCUUACUUCACUUUCUGAUCCAUCUCUCUCUUCAGCCGCUCCACA: 0.967
GCGAGGCAAGGGUUGCACUGGACCAAAGGCUGAGGCUUGGCCAUCUAGCAUUCCAUACAAAAUUGUUUCCUAUAAGCAUUCCUUUUAUUCUCUAUUCUAUCCUGGGUCUG: 0.729
UAAAUAAAUAAUUUUAGAAGUCUUUUUUUCUUUCCACAGACGACUAUUCUGAUCUAUUUUUUCCAGCCAUGUCACAAAGUGUGAAUUCCUACCAGCUAUUGACAGAGUAC: 0.679

Set 2
Target: Interferon regulatory factor 5, full length, phosphomimetic (IRF5, Homo sapiens, UniProt Q13568-2, residues 1-514, S451D/S453D/S456D/S462D)
Method: protein-binding microarray
Form: double-stranded DNA, one strand shown
Sample: in vitro
Concentration: 940 nM top
Notes: 60-bp whole probe
With: salmon DNA 0.4 mg/ml
Baseline: random background probes
Direction: higher = stronger binding
Quantity: fitted relative affinity
All sequences stand within: GCCTAGCAC … GTCTTGATTCGCTTGACGCTGCTG
TTAGGTATCGGGACGGGGTTAGTGCTA: 6.13 z-score
TTAGGGTTCGACACTGGGTTAGTGCTA: -0.0256 z-score
GACGATATCAGGCTCGAGACGTGCTAG: -0.31 z-score
GACGGTCTCGGACTCGGGACGTGCTAG: 0.658 z-score
TTCGGTTCCGGTTTCGGTTAGTGCTAG: 10.2 z-score
GACGGTAACCTTCTCCTGACGTGCTAG: 0.167 z-score
GACGGTATTCTTCTCCTGACGTGCTAG: 0.72 z-score
TTAGATTTCACTTTCGATTAGTGCTAG: 5.82 z-score
TTCCTTGCTATGTTGCTCAGGTGCTAG: 0.534 z-score
GTCAGTTTTGAGCTCTGTCTGTGCTAG: 0.267 z-score
GTCGGTTTCGACTTTCGGGACGTGCTA: 9.11 z-score
TTAGATATCAGTCTCCATTAGTGCTAG: 0.425 z-score
TTAGGCATCGGTTTCGGTTAGTGCTAG: 6.92 z-score
TTAGGTTTCGGTCTCTGTTAGTGCTAG: 14.1 z-score
GACGGTATGCTTATCCTGACGTGCTAG: -0.382 z-score
GACGGTATCAGACTGGAGACGTGCTAG: 0.232 z-score
TTATATTTCAGTTTCGATTAGTGCTAG: 10 z-score
TTAGAACTGGGGCATCGATTAGTGCTA: 0.0939 z-score
GACGGTATCCTACTGCTAACGTGCTAG: -0.354 z-score
TTAGGTCTCGGTTTCGGTCAGTGCTAG: 10.1 z-score
GACGGTTACGGGTATCGGGACGTGCTA: 0.88 z-score
AAGACTTTGCTCTGTGCATAGGTGCTA: -0.126 z-score
GACGATTTCGGGTCTGGAGACGTGCTA: 0.392 z-score
GACGGTCTCCTTTGCCTGACGTGCTAG: 0.268 z-score
GAAAGGTACCATGGTGGCTCGTGCTAG: -0.27 z-score

Set 3
Organism: Saccharomyces cerevisiae
Read-out: growth after mating arrest
Method: competitive growth deep sequencing
Form: peptide
Notes: strain without Cln2 fusion
Direction: direction not given
Quantity: enrichment score
GFGFLLFICKLTF: -0.473
RRVLCFDS: -0.35
LRRKLFLDGNGSIS: -0.418
ARKRLELGNLGNPQ: -0.413
LRRQLSFSED: 0.263
PPKPLKKLRFDIEGSD: -0.159
RKLHFEDEVT: 0.261
KVKRRLDLDIDGLQKE: 0.293
RKLDLEGIGR: 0.48

Set 4
Target: RING finger protein unkempt homolog, zinc fingers 1-6, SBP tag (UNK, Homo sapiens, UniProt Q9C0B0, residues 30-357)
UniProt Q9C0B0, sequence (30-357, looked up): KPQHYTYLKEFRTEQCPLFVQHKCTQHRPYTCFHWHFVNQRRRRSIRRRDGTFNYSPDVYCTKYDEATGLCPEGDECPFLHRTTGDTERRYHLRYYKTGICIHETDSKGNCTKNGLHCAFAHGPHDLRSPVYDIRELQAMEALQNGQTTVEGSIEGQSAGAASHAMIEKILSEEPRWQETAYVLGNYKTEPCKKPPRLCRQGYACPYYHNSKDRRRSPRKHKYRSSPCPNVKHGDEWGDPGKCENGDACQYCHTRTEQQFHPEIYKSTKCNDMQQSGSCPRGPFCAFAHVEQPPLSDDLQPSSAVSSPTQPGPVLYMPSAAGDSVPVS
Method: RNA Bind-n-Seq
Form: RNA
Sample: in vitro
Concentration: 100 nM
Notes: RNA with constant flanks, vertebrate orthologous sites, ends assumed
Baseline: input RNA pool
Direction: higher = stronger binding
Quantity: bound/input enrichment
All sequences stand within: GGGAGUUCUACAGUCCGACGAUC … CAACAGAGGAUUGAGCAUCA
CAACUCUAUGCUUGAGGGUUCAGAACUCAAAAAGGUUCGCUCCAACUCCCGAAUAUACCAUCGGUAUUUUUUGCUAGAUGCCGACAUGCAGAGCCUGAGGUGGGAGCCAUCUAAGAAGGA: 0.178 ratio
UGUGUUGGUGCAGAGCGUCUGUACCACUGCUCAUCGUCCCUUCUUCAUACCAACUGUCUCUAGUUGUAGGAAGUUAAUAUUUUUAAAAGUUUUACAUUGCUGUAUAUUCAAAGAUUUGUU: 0.398 ratio
GAAGAUGGUGGUUGUACAUUAUUUCAUUAGAAAAUAUAAAAAUUCAUUUUGUUUUGAAGCUAGGUGUUAAACUGGAGUAGCUACUAUACCCCCAGAGAAUGGGGCAGUUGUGCCCUUCCC: 0.968 ratio
UUUUUAUUGAUCAGGUCUGUAAAUGUGUACUAAAAAAUCAGAGUUUAUUUAUAAACAGAAUAUUUUAUUUAAAGAGAAGGUCUUUUCCUCAUUGCUAUCAUGGUAUGCAUUAAUUCCAUU: 0.181 ratio
CUGUUGUGUGAAACAUGUCUACCCAGAAAAGUAAUAUUCUACAAAUACUAUUAAACAACUUAGCUAUAUUAUUUUUAAGCAUUAAAUUAUACGUCAAGGAGUUAAAAUGAAUUUCAGAGU: 0.608 ratio
AUGUAGUUUGUUUUUAAUUUCAAGCAAAGUCUUAUUGUACUUGAAUGUGCCCUGUUUUGUUAGCACACCUAGACUUGCUGUAACUGUACUCAUGUCCCAGUAUGUACGUUCUUUCUAUGA: 1.21 ratio
GAAGAUGGUGGUUGUACAUUAUUCAUUUAGAAAAUAUAAAAAUUCGUUUUGUUUUGAAGCUAGGUAUUAAUUGGAAUAGCUCUUAUACCCAAGACUGGGACAGCUGUGCCCUUCCUUCCU: 2.37 ratio
AAUUGCCUAUAAUAAUGAAAACCAACAGGAAUUUUUUUAUUUCUCAUUUCCCCAUAGGUUUAUUCAGUCCUUUUUCCCAGGCAGAUCAUUCUGAGUGUGCGUGUGUGUGUGCACAUGUUA: 0.497 ratio
UCUUAUCCUGAUUUUAAAAGCCCUUCUUCAUCCCUUUUUUCUUUUUCUUUCCUUUUUUAGGCAUAUGUAGUAAUAAUAGCAGAAAGAUUUAAUUUGGGCAACUUUGAUUCUUCAAAGAGA: 0.453 ratio
UCUAUACAAUUUUAAAAAUAUUUCCUCAUAGGAUGCUUUGGCCUUUCAUCUAUUUAAUCAUAGCUACAUAUCUAUUUUUUAUAAGUAGCAGUACACAUUCAAAGGGGUAUUCCUAGCUCA: 0.776 ratio
AGGGAUGGCCCCCAAUCCCACUUCCGUUUAUUCUGUAAACUACAACCUGUAAAUAACGUUUAGCAUUCCUAUUGUAACAAAAUUAAUUUUUAUGAAAUAAAUUAUAUUUCCUAGUCUAAU: 1.42 ratio

Excerpt of the above (set 3):
RKLHFEDEVT: 0.261
ARKRLELGNLGNPQ: -0.413
PPKPLKKLRFDIEGSD: -0.159
